Measured values of several laboratories.
Each line is one published result; not all experiments were run side by side. Numbers after ± are the reported error.

Structure (SMILES) | assay | test system | setting | scale | measurement | result
O=C(Nc1nc2cccc(-c3ccc(CN4CCS(=O)(=O)CC4)cc3)n2n1)C1CC1 | refers to: cystitis | human rheumatoid arthritis patients | oral, 150 mg once daily, 4 weeks, regardless of relatedness |  | treatment-emergent adverse events | 0%
N#Cc1ccc2c(c1)[C@H]1CCCN(C(=O)c3ccc4[nH]cnc4c3)[C@H]1C2 |  | human females | 40 mg, day 7 |  | SHBG level | 32.2 nmol/L
CCN(CC)/C(N)=N\c1ccc(NC(=O)c2ccc(C(=O)Nc3ccc(/N=C(\N)N(CC)CC)cc3)cc2)cc1 | haemolysis | sheep erythrocytes | 1 h, pH 7.5 |  | HC50 | > 128 µg/mL
CCN1/C(=C/C(C)=O)Sc2ccc(F)cc21 |  | cynomolgus monkey | oral, 30 mg/kg, 0.5 h post-dose |  | systolic blood pressure | 112 ± 8 mmHg
N#C[C@@]1(c2ccc3c(N)ncnn23)O[C@H](CO)[C@@H](O)[C@H]1O |  | dog, plasma | intravenous, 2 mg/kg |  | MRT(0-inf) | 4.03 h
CCOc1c([C@H](C)n2nc(C)c3c(N)ncnc32)cc(Cl)c(F)c1[C@@H]1CNC(=O)C1 | ECG | previously treated B-cell malignancy patients | oral, 5 mg once daily, baseline QTcF ≤450 ms |  | observations ΔQTcF >30 ≤60 ms | 40%
CC(C)[C@H](N)C(=O)NCCCS(=O)(=O)O |  | human both sexes, plasma | oral, 256.5 mg once daily, day 1, fasted capsule |  | AUC(0-12) | 9830 ng·h/mL
C=CC(=O)N1CCC(c2ccc(C(N)=O)c(-c3ccc(Oc4ccccc4)cc3)n2)CC1 |  | relapsed/refractory mantle cell lymphoma patients | oral, dose not given, part, all doses, CTCAE v4.03 |  | serious TEAE rate | 0%
COCCOc1cnc2ccn([C@H](C)c3nnc4c(F)cc(-c5cnn(C)c5)cn34)c(=O)c2c1 |  | patients, plasma | oral, 150 mg once daily, day 1 |  | Cmax | 2730 ng/mL
c1ccc(-c2nc(N3CCC(c4ccccn4)C3)c3ccccc3n2)nc1 (stereo not drawn) |  | female Balb/c mice, blood | intravenous, 2 mg/kg, 0.083 h, mean, together with: 1-aminobenzotriazole co-dosed |  | blood concentration | 2470 ng/mL
Cn1ncc(S(=O)(=O)NC2CCc3c2ccc(Cl)c3Cl)c1C(=O)O (stereo not drawn) | colloidal aggregate formation, dynamic light scattering | 50 mM potassium phosphate buffer | 200 µM, pH 7.0, 1% DMSO | higher = more aggregation | DLS scattered light intensity | 1.75e+06 counts/s
CN1C[C@H](COc2nccc3c(NCc4ccco4)cc(Cl)nc23)OC1=O |  | rabbit, isolated Langendorff heart | dose not given |  | effect on LVEDP | negative
CNC(=O)c1ccc(-c2cnc3ncc(Cc4ccc5ncccc5c4)n3n2)cc1F | CTCAE v4.0, any causality | human gastric cancer patients | oral, 600 mg twice daily, expansion cohort at RP2D |  | non-cardiac chest pain incidence (all grades) | 0%
CCCCOC(=O)N1CCN(C(=O)[C@H](CP(=O)(O)O)NC(=O)c2cc(N3CC[C@H](OC)C3)nc(-c3ccccc3)n2)CC1 | refers to: Urea | human, blood | 16 mg, 24 h |  | change from baseline | -0.27 ± 1.07 mmol/L
COc1ccc(-c2csc(CNS(=O)(=O)c3cnn(C)c3C(=O)O)n2)cc1 | colloidal aggregate formation, dynamic light scattering | 50 mM potassium phosphate buffer | 200 µM, pH 7.0, 1% DMSO | higher = more aggregation | DLS scattered light intensity | 411000 counts/s
C[Si](C)(C)O[Si](C)(C)C |  | 1-octanol/water | 2-27 µg/L in water, 28.3 °C |  | log KOW | 5.29
COC(=O)/C(C#N)=C1\Nc2ccccc2O1 | haemolysis | sheep erythrocytes | 1 h, pH 7.5 |  | HC50 | > 128 µg/mL
CNC(=O)c1cc(Oc2ccc(NC(=O)Nc3cc(C(C)(C)C)nn3-c3ccc4ncccc4c3)c(F)c2)ccn1 | refers to: worst grade 3 | human | oral, dose not given, cycles 1 and 2, High AUC(0-4 h) subgroup |  | patients with nervous system disorder AE | 6%
COc1cc(C(=O)N2CCC3(CC2)CC(=O)c2c(cnn2C(C)C)C3)cc(-c2ccc(C(=O)O)cc2)n1 | refers to: total cholesterol | human, fasting serum | 100 mg every 12 h, day 13, adjusted geometric mean | relative to: baseline | percentage change from baseline | -11.9%
COc1cc(N)c(Cl)cc1C(=O)NC1CCN(CCCOc2ccc(F)cc2)CC1OC (stereo not drawn) |  | male Hartley guinea pig, anaesthetized | intravenous infusion, 0.3 mg/kg, 10 min infusion, post-infusion |  | QTc interval | 358 ± 0.7 ms

Structure (SMILES) | assay | test system | setting | scale | measurement | result
Nc1ccn([C@@H]2O[C@H](CO)[C@@H](O)C2(F)F)c(=O)n1 | refers to: dFdU | human, plasma | intravenous, 800 mg/m^2, together with: after paricalcitol |  | Tmax, median | 1 h
Cc1cc(Nc2ncnc3ccc(NC4=NC(C)(C)CO4)cc23)ccc1Oc1ccn2ncnc2c1 |  | human, plasma | oral, 300 mg, day 1, single dose alone |  | Cmax, geometric mean | 302 ng/mL
NC(=O)c1cc(Oc2ccc(NC(=O)Nc3ccc(Cl)c(C(F)(F)F)c3)c(F)c2)cc[n+]1[O-] |  | Oatp1b2 knockout mice, plasma | oral, molecular weight corrected, together with: regorafenib single dose |  | metabolite to parent AUC ratio | 0.51%
C=CC(=O)Nc1cc(Nc2nccc(-c3cn(C)c4ccccc34)n2)c(OC)cc1N(C)CCN(C)C | storage stability | human dried blood spots | 72 h, -80 °C, low QC level |  | recovery | 94.4%
CO/N=C(\C(=O)N[C@@H]1C(=O)N2C(C(=O)O)=C(COC(C)=O)CS[C@H]12)c1csc(N)n1 |  | human whole blood | concentration not given, 48 h, 4 °C |  | deviation from nominal concentration | -2.6%
COc1ccnc(C(=O)N[C@H]2COC(=O)[C@H](Cc3ccccc3)[C@@H](O)[C@H](C)OC2=O)c1O | soil adsorption | clay loam soil | pH 7.2, organic carbon 4.4 % |  | Freundlich coefficient KF | 11.7 mL/g
CNCCOC12CC3(C)CC(C)(CC(Cn4ncc(-c5ccc(N6CCc7cccc(C(=O)Nc8nc9ccccc9s8)c7C6)nc5C(=O)O)c4C)(C3)C1)C2 |  | beagle dog, male, anaesthetised | intravenous bolus, 0.03 mg/kg, 60 min | relative to: baseline | PR interval change | -3 ms
CCC(C)n1ncn(-c2ccc(N3CCN(c4ccc(OCC5COC(Cn6cncn6)(c6ccc(Cl)cc6Cl)O5)cc4)CC3)cc2)c1=O (stereo not drawn) |  | human, plasma | oral, dose not given, day 14 predose, geometric mean |  | trough plasma concentration | 128 ng/mL
O=C(CCCN1CC=C(n2c(=O)[nH]c3ccccc32)CC1)c1ccc(F)cc1 |  | male Hartley guinea pig, anaesthetized | intravenous, 0.3 mg/kg, baseline before infusion |  | QTc interval | 324 ± 0.4 ms
COc1cc(NS(=O)(=O)c2cc(Cl)cc(Cl)c2O)c(F)cc1C#N | colloidal aggregate formation, dynamic light scattering | 50 mM potassium phosphate buffer | 200 µM, pH 7.0, 1% DMSO | higher = more aggregation | DLS scattered light intensity | 1.07e+06 counts/s
Cc1ccc(Sc2ccccc2N2CCNCC2)c(C)c1 | refers to: any TEAE | healthy adult men | oral, 5 mg daily, 12 days |  | participants with TEAE | 33.3%
CN1C(=O)[C@@H](NC(=O)c2nnc(Cc3ccccc3)[nH]2)COc2cccnc21 |  | human, plasma | oral, 100 mg once daily, day 1, median |  | Tmax | 3 h
COc1cc(Nc2ncc3c(n2)-c2ccc(Cl)cc2C(c2c(F)cccc2OC)=NC3)ccc1C(=O)O |  | patients | oral, dose not given, grade 1, any attribution, together with: pembrolizumab |  | decreased white cell count incidence | 29%
C[C@H](CCC(=O)NCCS(=O)(=O)O)[C@H]1CC[C@H]2[C@@H]3[C@H](O)C[C@@H]4C[C@H](O)CC[C@]4(C)[C@H]3C[C@H](O)[C@]12C |  | human, plasma | endogenous baseline diurnal |  | daily mean concentration | 16.4 ± 1.4 nM
Cn1ncc(S(=O)(=O)NC2(c3ccc(Cl)cc3F)CCCCC2)c1C(=O)O | colloidal aggregate formation, dynamic light scattering | 50 mM potassium phosphate buffer | 200 µM, pH 7.0, 1% DMSO | higher = more aggregation | DLS scattered light intensity | 1.3e+06 counts/s
Cc1cc(-c2nccc3c2ccn3CC(=O)Nc2ccc(-c3cnccn3)cn2)ccn1 |  | human | SAD part, single 20 mg dose |  | subjects with any serious TEAE | 0%
Cc1cc(-c2nnc(N)nc2-c2ccc(F)cc2)cc(Cl)n1 | refers to: psoriasiform dermatitis, all grades | male IO-naive mCRPC patients | oral, dose not given |  | incidence of AE, immune-mediated, treatment-related | 0%
CC(C)(C(=O)N1CCOc2c(C#N)cncc2C1)C(F)F | refers to: CSF leakage | human | oral, 10 mg, CSF pharmacokinetic cohort |  | subjects with adverse event | 16.7%
O=c1[nH]c(=O)n([C@@H]2O[C@H](CO)[C@@H](O)[C@@H]2F)cc1CCCC[18F] |  | nude mice, RG2 tumour, blood | intravenous, dose not given, 2 h, co-injection |  | blood concentration | 0.11 ± 0.02 %ID/g
